# Published values pooled from the literature.
# Protocols differ between the studies behind these lines. ± marks the error that the study gave.
# YES1: Tyrosine-protein kinase Yes (YES1, Homo sapiens, UniProt P07947)
# Chain of UniProt P07947 (whole entry, unmodified, looked up): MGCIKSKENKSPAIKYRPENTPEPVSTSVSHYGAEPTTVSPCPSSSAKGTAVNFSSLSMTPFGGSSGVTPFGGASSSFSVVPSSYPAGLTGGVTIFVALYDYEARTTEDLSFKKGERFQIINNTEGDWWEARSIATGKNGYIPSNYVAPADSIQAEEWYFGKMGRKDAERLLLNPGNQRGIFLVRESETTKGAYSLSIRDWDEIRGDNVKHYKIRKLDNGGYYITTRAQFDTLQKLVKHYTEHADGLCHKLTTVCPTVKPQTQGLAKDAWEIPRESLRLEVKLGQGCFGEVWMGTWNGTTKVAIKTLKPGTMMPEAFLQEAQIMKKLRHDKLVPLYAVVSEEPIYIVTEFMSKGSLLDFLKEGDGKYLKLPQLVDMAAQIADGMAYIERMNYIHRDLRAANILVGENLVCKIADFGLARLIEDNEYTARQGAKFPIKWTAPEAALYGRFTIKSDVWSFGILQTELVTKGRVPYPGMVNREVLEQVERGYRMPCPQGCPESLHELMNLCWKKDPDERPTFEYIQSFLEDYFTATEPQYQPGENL
SMILES,target,assay,setting,how to read,endpoint,value
CC#CC(=O)N1CCC[C@H]1c1nc(-c2ccc(C(=O)Nc3ccccn3)cc2)c2c(N)nccn12,YES1,"kinase activity, inhibitor, HotSpot radiometric","100 nM, together with: ATP 10 µM",,remaining activity,88.55 ± 0.5%
O=C1NC(=O)/C(=C/c2ccc(-c3ccc(F)cc3O)o2)S1,YES1,enzyme activity,10 µM,,remaining activity,36%
C=CC(=O)N1CCC[C@@H](n2nc(-c3ccc(Oc4ccccc4)cc3)c3c(N)ncnc32)C1,YES1,,0.1 µM,,remaining activity,99.3%
[2H]c1cc(C)c(NC(=O)c2cnc(Nc3cc(N4CCCCC4)nc(C)n3)s2)c(Cl)c1,"YES1 (Homo sapiens, UniProt P07947, T348I)",,0.01 µM,,inhibition,< 30%
COc1ccc(F)cc1C(=O)NCc1ccc(-c2nn([C@@H](C)C(F)(F)F)c(N)c2C(N)=O)cc1,YES1,"kinase activity, inhibitor, HotSpot radiometric","100 nM, together with: ATP 10 µM",,remaining activity,47.6 ± 0.2%
Cc1nc(Nc2ncc(C(=O)Nc3c(C)cccc3Cl)s2)cc(N2CC[C@H](O)C2)n1,YES1,,0.001 µM,,inhibition,100%
Cc1cc(Nc2cc(N3CCN(C)CC3)nc(Sc3ccc(NC(=O)C4CC4)cc3)n2)[nH]n1,YES1,"kinase activity, KinaseProfiler","0.03 µM, species human",baseline: control,remaining activity,62%
COc1cc(-c2cncc3c2CN(C)Cc2cc(N4CCNCC4)ccc2-3)cc(OC)c1OC,YES1,kinase activity,"1 µM, human enzyme, together with: ATP 10 µM",baseline: DMSO control,remaining activity,64%
C=CC(=O)N1CCC[C@@H](n2nc(-c3ccc(Oc4ccccc4)cc3)c3c(N)ncnc32)C1,YES1,"kinase activity, inhibitor, HotSpot radiometric","100 nM, together with: ATP 10 µM",,remaining activity,6.6 ± 0.9%

# Repeated from above:
SMILES,target,assay,setting,how to read,endpoint,value
Cc1nc(Nc2ncc(C(=O)Nc3c(C)cccc3Cl)s2)cc(N2CC[C@H](O)C2)n1,YES1,,0.001 µM,,inhibition,100%
